Measured values gathered from unrelated publications.
Lines come from different studies, so protocols differ. “And” joins repeats or separate records; there may be more than shown. ± marks the error that the study gave.
Organism: Leishmania infantum

The selectivity ratio of CNCCNC(=O)CN1C(=O)Cc2c([nH]c3ccc(Br)cc23)-c2ccc(Cl)cc21 is reported as 1 (intracellular amastigotes; relative to: macrophage CC50 over amastigote EC50).
For COC(=O)C1C(c2nc3cc(OC)ccc3[nH]2)=Cc2cc3c(cc2C1c1cc(OC)c(OC)c(OC)c1)OCO3 (centres unmarked), the EC50 was 34.3 µM (parasite growth; promastigote).
CCOC(=O)c1cn(CC(c2c[nH]c3cc(Br)ccc23)c2c[nH]c3cc(Br)ccc23)c(C)c1C(=O)OC has a selectivity index of 1.7 (DH82, MHOM/TN/80/IPT1; 72 h; relative to: CC50 over IC50).
Cc1ccc(N2Cc3cc(NC(=O)N4CCN(c5ccc(F)cc5)CC4)ccc3C2=O)cc1 has an IC50 of 32.5 µM (parasite growth, imaging; intracellular, amastigote).
The selectivity ratio of CCOC(=O)c1c(C#N)c(-c2cn(C)c3ccccc23)n(NC(=O)OC(C)(C)C)c1C is reported as 3.7 (MHOM/TN/80/IPT1 promastigotes; relative to: CC50 THP-1 over IC50 promastigotes).
The inhibition of NNc1nnc(Cl)c2ccccc12 is reported as 18.6% (parasite growth, MTT; 25 µM, promastigote).
With CC1(C)CCCc2cc3c(cc21)C(=O)C=CC3=O the selectivity index was 11.2 (promastigotes; relative to: HepG2 CC50 over promastigote EC50).
The EC50 of COC(=O)C1C(C=NO)=Cc2cc3c(cc2C1c1cc(OC)c(OC)c(OC)c1)OCO3 (centres unmarked) is reported as 59.4 ± 0.8 µM (intracellular amastigote growth, iRFP fluorescence; infected mouse splenocyte explants; 48 h).
With CCOC1=CC(=O)c2cc3c(cc2C1=O)CCCC3(C)C the EC50 was 14.8 ± 1.9 µM (intracellular amastigotes, ex vivo mouse splenic explants; 72 h).
C=CCOC(=O)C1C(C=O)=Cc2cc3c(cc2C1c1cc(OC)c(OC)c(OC)c1)OCO3 (centres unmarked) gave an EC50 of 57 µM (parasite growth; promastigote).
The inhibition of NNc1n[nH]c(=O)c2ccccc12 is reported as 12.3% (parasite growth, MTT; 25 µM, promastigote).
CCOC(=O)c1c(C#N)c(-c2c[nH]c3cccc(Cl)c23)n(NC(=O)OC(C)(C)C)c1C has an inhibition of -15.6% (parasite growth; 20 µM, 72 h, promastigote).
CC(=O)Oc1cc(C)c(OC(C)=O)c2c1CC=C(CCC=C(C)C)C2 gave a selectivity index of greater than 18.3 (promastigotes; relative to: HepG2 CC50 over promastigote EC50).
CC1(C)NC(N)=Nc2nc3cc(Cl)c(Cl)cc3n21 has an EC50 of greater than 20 µM (parasite growth; 72 h, promastigote).
COc1cc(C2c3cc4c(cc3C=C(C=O)C2C(=O)OCC=Cc2ccccc2)OCO4)cc(OC)c1OC (centres unmarked) has an EC50 of 9.9 ± 0.5 µM (intracellular amastigote growth, iRFP fluorescence; infected mouse splenocyte explants; 48 h).
With CCOC(=O)c1c(C#N)c(-c2c(C)[nH]c3ccccc23)n(NC(=O)OC(C)(C)C)c1C the inhibition was -48.9% (parasite growth; 20 µM, 72 h, promastigote).
CC(C)=CCCC1=CCC2C(=O)c3ccccc3C(=O)C2C1 (centres unmarked) has a selectivity index of 1.2 (promastigotes; relative to: HepG2 CC50 over promastigote EC50).
COC(=O)C1C(C=NN=CC2=Cc3cc4c(cc3C(c3cc(OC)c(OC)c(OC)c3)C2C(=O)OC)OCO4)=Cc2cc3c(cc2C1c1cc(OC)c(OC)c(OC)c1)OCO3 (centres unmarked) gave an EC50 of greater than 100 µM (intracellular amastigote growth, iRFP fluorescence; infected mouse splenocyte explants; 48 h).
The selectivity index of CCOC(=O)c1c(C(=O)OC)cn(CC(c2cn(C)c3ccccc23)c2cn(C)c3ccccc23)c1C is reported as greater than 55 (DH82, MHOM/TN/80/IPT1; 72 h; relative to: CC50 over IC50).
With CCOC(=O)c1c(C#N)c(-c2c[nH]c3cccc(OCc4ccccc4)c23)n(NC(=O)OC(C)(C)C)c1C the selectivity ratio was 4.5 and 5 and ~5 (MHOM/TN/80/IPT1 promastigotes; relative to: CC50 THP-1 over IC50 promastigotes).
With COC(=O)C1C(c2nc3ncccc3[nH]2)=Cc2cc3c(cc2C1c1cc(OC)c(OC)c(OC)c1)OCO3 (centres unmarked) the EC50 was 21.2 µM (parasite growth; mouse Splenocyte; 48 h, intracellular, amastigote).
CCNC1=CC(=O)c2cc3c(cc2C1=O)CCCC3(C)C has an EC50 of 19.9 µM (parasite growth; 72 h, promastigote).
The selectivity index of CCCCCc1cn(CCCCCCCCCCCOP(=O)([O-])OCC[N+](C)(C)C)nn1 is reported as greater than 75 (THP-1; intracellular amastigotes; relative to: CC50 THP-1 over IC50 amastigotes).
For O=C(Nc1ccc2c(c1)CN(c1ccccc1)C2=O)N1CC[C@H](F)C1, the IC50 was greater than 64 µM (parasite growth, Giemsa stain; primary peritoneal mouse macrophages, MHOM/MA(BE)/67 amastigotes; 5 d).
The EC50 of COC1=CC(=O)c2cc3c(cc2C1=O)CCCC3(C)C is reported as 14.2 ± 2.5 µM (intracellular amastigotes, ex vivo mouse splenic explants; 72 h).
The EC50 of COc1cc([C@@H]2c3cc4c(cc3C=C(C=O)[C@H]2C(=O)N2CCCC2)OCO4)cc(OC)c1OC is reported as greater than 100 µM (intracellular amastigote growth, iRFP fluorescence; infected mouse splenocyte explants; 48 h).
With CCOC(=O)c1c(C#N)c(-c2c[nH]c3ccc(Br)cc23)n(NC(=O)OC(C)(C)C)c1C the inhibition was -75.7% (parasite growth; 20 µM, 72 h, promastigote).
O=C(Nc1ccc2c(c1)CN(c1ccc(Cl)c(Cl)c1)C2=O)N1CCN(c2ccccc2)CC1 has an IC50 of greater than 64 µM (parasite growth, Giemsa stain; primary peritoneal mouse macrophages, MHOM/MA(BE)/67 amastigotes; 5 d).
For O=[N+]([O-])/C=C/c1ccco1, “minimal parasiticidal concentration” read 12.6 ± 0.5 µM (motility arrest; promastigotes; 72 h, 26 °C).
For CCOC(=O)Nn1c(C)c(C(=O)OCC)c(C#N)c1-c1c[nH]c2ccccc12, the inhibition was -91.5% (parasite growth; 20 µM, 72 h, promastigote).
The EC50 of CC(C)=CCCC1=CCC2=C(C1)C(=O)c1ccccc1C2=O is reported as 18.2 µM (parasite growth; 72 h, promastigote).
C/C(=C\c1ccco1)[N+](=O)[O-] — result for “minimal parasiticidal concentration”: 8.3 ± 0.5 µM (motility arrest; promastigotes; 72 h, 26 °C).
